Measurements from different studies.
Compare with care: the assays were run in different laboratories.

| SMILES | test | system | conditions | how to read | Cmax |
| --- | --- | --- | --- | --- | --- |
| C[C@@H]1CCO[C@H]2Cn3cc(C(=O)NCc4ccc(F)cc4F)c(=O)c(O)c3C(=O)N12 |  | human, age ≥1 months, body weight 3 to <6 kg, plasma | oral, 5 mg, dispersible tablet, steady state |  | 3220 ng/mL |
| CN1C(=O)[C@@H](NC(=O)c2nnc(Cc3ccccc3)[nH]2)COc2cccnc21 |  | human, plasma | oral, 100 mg once daily, day 14, geometric mean |  | 1720 ng/mL |
| O=C(COc1ccc(Cl)cc1)NC12CC(c3nnc([C@H]4C[C@@H](OC(F)(F)F)C4)o3)(C1)C2 |  | healthy human volunteers fasted, plasma | oral, 45 mg single dose, geometric mean |  | 514 nM |
| Cl.[2H]C([2H])([2H])CC(=O)c1cnc(NC(=O)C2CC2)cc1Nc1cccc(-c2ncn(C([2H])([2H])[2H])n2)c1OC | geometric mean | human | oral, 20 mg twice daily, day 14, fasted, tablet, multiple dose |  | 287 ng/mL |
| COc1cc(N2CCC(N3CCN(C)CC3)CC2)ccc1Nc1ncnc(Nc2ccccc2S(=O)(=O)C(C)C)n1 |  | human, plasma | oral, 50 mg, day 28 |  | 296 ng/mL |
| C[C@@H](Nc1cc(F)cc(F)c1)c1cc(C(=O)N(C)C)cc2c(=O)cc(N3CCOCC3)oc12 |  | human | oral, 60 mg twice daily, 5:2 schedule, steady state, geometric LSM, with: abiraterone 1000 mg |  | 364 ng/mL |
| CCOc1c([C@H](C)n2nc(C)c3c(N)ncnc32)cc(Cl)c(F)c1[C@@H]1CNC(=O)C1 |  | human, B-cell malignancies, plasma | oral, 20 mg, day 15, geometric mean |  | 1660 nM |
| C=CCn1c(=O)c2cnc(Nc3ccc(N4CCN(C)CC4)cc3)nc2n1-c1cccc(C(C)(C)O)n1 |  | human | oral, 300 mg once daily, cycle 1 day 17, with: durvalumab 1500 mg IV | geometric mean | 1380 nM |
| CNC(=O)c1ccc(-c2cnc3ncc(Cc4ccc5ncccc5c4)n3n2)cc1F |  | human severe hepatic impairment | oral, 200 mg single dose, covariate-adjusted geometric mean |  | 1910 ng/mL |
| CO[C@H]1C[C@@H]2CC[C@@H](C)[C@@](O)(O2)C(=O)C(=O)N2CCCC[C@H]2C(=O)O[C@H]([C@H](C)C[C@@H]2CC[C@@H](OC(=O)NCCOCCOCCOCCOCCOCCOCCOCCOCCC(=O)N3CCc4cc(Cn5nc(-c6ccc7oc(N)nc7c6)c6c(N)ncnc65)ccc4C3)[C@H](OC)C2)C[C@@H](O)[C@H](C)/C=C(\C)[C@@H](O)[C@@H](OC)C(=O)[C@H](C)C[C@H](C)/C=C/C=C/C=C/1C |  | human, plasma | intravenous, 6 mg, cycle 1 day 1, arithmetic mean |  | 180 ng/mL |
| COc1ncc(-c2nc3c(n2C(C)C)[C@H](c2ccc(Cl)cc2)N(c2cc(Cl)cn(C)c2=O)C3=O)c(OC)n1 | LC-MS/MS | human, plasma | oral, 50 mg, cycle 2 day 1, high-dose arm |  | 500 ng/mL |
| O=C(O)CCC(=O)O.[2H]C([2H])([2H])Oc1cc(C)c2[nH]ccc2c1CN1CC[C@@H](C2CC2)C[C@H]1c1ccc(C(=O)O)cc1 |  | human, plasma | 300 mg once daily, day 1, multiple ascending dose, geometric mean |  | 4390 ng/mL |

For quick reference, copied from above:
| SMILES | test | system | conditions | how to read | Cmax |
| --- | --- | --- | --- | --- | --- |
| CO[C@H]1C[C@@H]2CC[C@@H](C)[C@@](O)(O2)C(=O)C(=O)N2CCCC[C@H]2C(=O)O[C@H]([C@H](C)C[C@@H]2CC[C@@H](OC(=O)NCCOCCOCCOCCOCCOCCOCCOCCOCCC(=O)N3CCc4cc(Cn5nc(-c6ccc7oc(N)nc7c6)c6c(N)ncnc65)ccc4C3)[C@H](OC)C2)C[C@@H](O)[C@H](C)/C=C(\C)[C@@H](O)[C@@H](OC)C(=O)[C@H](C)C[C@H](C)/C=C/C=C/C=C/1C |  | human, plasma | intravenous, 6 mg, cycle 1 day 1, arithmetic mean |  | 180 ng/mL |
| COc1ncc(-c2nc3c(n2C(C)C)[C@H](c2ccc(Cl)cc2)N(c2cc(Cl)cn(C)c2=O)C3=O)c(OC)n1 | LC-MS/MS | human, plasma | oral, 50 mg, cycle 2 day 1, high-dose arm |  | 500 ng/mL |
